{"data": "Published values pooled from the literature", "note": "Each numbered part is a random draw from the data of one study; scales do not carry over between parts. Positions count from the first letter of the parent shown."}
{"data": "Series 1", "target": "CCNA2, cyclin fold, Cln2 fusion (human)", "method": "yeast growth competition, sequencing", "matrix": "yeast", "notes": "strong parent motif", "reference": "not given", "reading": "higher = stronger binding", "starting sequence": "PKN2 docking peptide (human); VSAVQKLDFSDTM; partner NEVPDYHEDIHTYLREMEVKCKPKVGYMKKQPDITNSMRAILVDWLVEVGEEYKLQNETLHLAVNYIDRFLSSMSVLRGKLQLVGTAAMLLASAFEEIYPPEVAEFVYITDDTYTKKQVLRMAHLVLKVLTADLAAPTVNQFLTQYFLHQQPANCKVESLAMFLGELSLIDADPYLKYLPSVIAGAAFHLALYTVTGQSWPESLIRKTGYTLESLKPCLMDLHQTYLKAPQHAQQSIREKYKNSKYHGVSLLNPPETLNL"}
{"Substitution": "D11M", "normalised enrichment score": 2.06}
{"Substitution": "A3W", "normalised enrichment score": 0.647}
{"Substitution": "K6E", "normalised enrichment score": -0.147}
{"Substitution": "L7N", "normalised enrichment score": -0.384}
{"Substitution": "V4Q", "normalised enrichment score": 1.06}
{"Substitution": "F9L", "normalised enrichment score": -0.108}
{"Substitution": "K6V", "normalised enrichment score": 0.683}
{"Substitution": "F9S", "normalised enrichment score": 0.394}
{"Substitution": "D11P", "normalised enrichment score": 1.19}
{"Substitution": "V4K", "normalised enrichment score": 3.08}
{"Substitution": "S10W", "normalised enrichment score": 1.51}
{"Substitution": "S2Y", "normalised enrichment score": 1.96}
{"Substitution": "F9E", "normalised enrichment score": -0.27}
{"Substitution": "L7V", "normalised enrichment score": -0.318}
{"Substitution": "M13T", "normalised enrichment score": 2.48}
{"data": "Series 2", "target": "ABI1, truncated, D143A, DHFR fusion (Arabidopsis thaliana)", "method": "DHFR PCA, deep sequencing", "matrix": "yeast", "notes": "methotrexate growth selection, single substitutions", "with": "(+)-ABA 0.032 µM", "reference": "wild-type fitted maximum", "reading": "higher = stronger binding", "starting sequence": "PYL1, truncated, DHFR fusion (Arabidopsis thaliana); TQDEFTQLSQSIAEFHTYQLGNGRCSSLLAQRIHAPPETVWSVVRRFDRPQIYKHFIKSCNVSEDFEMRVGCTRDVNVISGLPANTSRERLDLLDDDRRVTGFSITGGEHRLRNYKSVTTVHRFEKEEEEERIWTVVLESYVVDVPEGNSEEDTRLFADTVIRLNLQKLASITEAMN; partner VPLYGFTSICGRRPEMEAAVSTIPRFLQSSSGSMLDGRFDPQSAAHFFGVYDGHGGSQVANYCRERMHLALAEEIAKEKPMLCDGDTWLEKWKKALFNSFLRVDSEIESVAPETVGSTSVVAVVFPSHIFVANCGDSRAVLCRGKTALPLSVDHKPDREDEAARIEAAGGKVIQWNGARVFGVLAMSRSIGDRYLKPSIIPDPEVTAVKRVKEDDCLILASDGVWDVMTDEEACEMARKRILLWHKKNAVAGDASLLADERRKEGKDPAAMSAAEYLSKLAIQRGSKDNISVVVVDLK"}
{"Substitution": "P36S", "relative binding score [%]": 19.2}
{"Substitution": "L20F", "relative binding score [%]": 5.93}
{"Substitution": "S63P", "relative binding score [%]": 44.2}
{"Substitution": "T86E", "relative binding score [%]": 5.87}
{"Substitution": "T135G", "relative binding score [%]": -2.76}
{"Substitution": "E139Y", "relative binding score [%]": -0.757}
{"Substitution": "Q2W", "relative binding score [%]": 48.4}
{"Substitution": "D159G", "relative binding score [%]": 1.32}
{"Substitution": "H55R", "relative binding score [%]": 23.4}
{"Substitution": "V118C", "relative binding score [%]": 9.76}
{"Substitution": "M68N", "relative binding score [%]": 2.31}
{"data": "Series 3", "target": "Protein max, full length (MAX, Homo sapiens, UniProt P61244-2, residues 1-151)", "method": "protein-binding microarray", "molecule type": "double-stranded DNA, one strand shown", "matrix": "in vitro", "concentration": "not given", "notes": "k-mer, scored over probes, only values ≥0.25", "reading": "higher = stronger binding"}
{"Oligonucleotide": "ACGAGCGT", "E-score": 0.288}
{"Oligonucleotide": "CGGGTGGC", "E-score": 0.266}
{"Oligonucleotide": "ATGCGCAC", "E-score": 0.361}
{"Oligonucleotide": "ATCGTGCC", "E-score": 0.254}
{"Oligonucleotide": "CGTGCGGA", "E-score": 0.319}
{"Oligonucleotide": "CATGCGAA", "E-score": 0.257}
{"Oligonucleotide": "CTGTCACA", "E-score": 0.255}
{"Oligonucleotide": "AGCGTGGG", "E-score": 0.437}
{"Oligonucleotide": "CGTGGCTC", "E-score": 0.397}
{"Oligonucleotide": "ACGAGCAT", "E-score": 0.308}
{"Oligonucleotide": "TCACGCGA", "E-score": 0.377}
{"Oligonucleotide": "ACGTGGCG", "E-score": 0.451}
{"data": "Series 4", "Molecule": "PhoQ, residues 284 288 289 292 302 303 AEGLLW", "method": "Sort-seq", "refers to": "YFP reporter", "matrix": "E. coli", "notes": "PhoQ-PhoP variant library", "with": "10 µM Mg2+", "reference": "high Mg2+ state", "reading": "higher = stronger signaling"}
{"target": "PhoP, residues 12 14 15 18 19 QQAYL (Escherichia coli, UniProt P23836)", "fold induction": 21.1}
{"target": "PhoP, residues 12 14 15 18 19 LFHKL (Escherichia coli, UniProt P23836)", "fold induction": 5.07}
{"target": "PhoP, residues 12 14 15 18 19 GMGLL (Escherichia coli, UniProt P23836)", "fold induction": 0.568}
